Measurements pooled from the literature.
Lines come from different studies, so protocols differ. Values joined by “and” are separate records of one study, mostly repeats; a detail may differ. Numbers after ± are the reported error.

O=C(CCCCCCC(=O)Nc1ccc([C@H]2O[C@@H](CSc3nc(-c4ccccc4)c(-c4ccccc4)o3)C[C@@H](c3ccc(CO)cc3)O2)cc1)NO — viability (OCI-Ly1; 0.5 µM, 120 h): 147%
c1coc(-c2n[nH]cc2-c2ccnc3ccccc23)c1 — log2 fold change (IKS1 (Candida albicans); kinase binding, MIB/MS competition; Candida albicans lysate; 1 µM; relative to: DMSO): -0.32
NC(=O)c1ccc(I)c([N+](=O)[O-])c1 — viability (OCI-Ly1; 0.5 µM, 120 h): 146%
Oc1ccccc1-c1n[nH]cc1-c1ccnc2ccccc12 — log2 fold change (RAD53 (Candida albicans); kinase binding, MIB/MS competition; Candida albicans lysate; 1 µM; relative to: DMSO): 1.11
O=C(Nc1cc(OCCN2CCCC2)c2ccccc2n1)c1cc(Cl)cc(C(=O)Nc2cc(OCCN3CCCC3)c3ccccc3n2)n1 — delta Tm (double-stranded DNA; FRET melting; 1 µM, pH 7.4, 60 mM potassium, with: oligonucleotide 200 nM): 0.1 ± 0.1 K
COc1cc2nc(N3CCCN(C)CC3)nc(NC3CCN(Cc4ccccc4)CC3)c2cc1OC — viability (OCI-Ly1; 0.1 µM, 120 h): 187%
COc1cc(C(=O)Nc2cc(OC)c3ccccc3n2)nc(C(=O)Nc2cc(OC)c3ccccc3n2)c1 — ΔTm (human telomeric G-quadruplex DNA; FRET melting; 1 µM, pH 7.4, with: 60 mM potassium): 0.5 ± 0.4 K
O=C(O)CNC(=O)Cc1ccccc1 — sarcomere length (ventricular cardiomyocytes, C57BL/6 mouse; dose not given, 0.864 s): 1.62 µm
CCCC(CCC)C(=O)O — viability (OCI-Ly1; 0.1 µM, 120 h): 185%
Cn1cc(-c2ccc(-c3cncc(Cl)c3N3CCC4(CCNC4=O)CC3)cc2)cn1 — fold change in expression (COLO 205; microarray, item: R3HDM1; concentration not given, 2 h; relative to: untreated cells): -1.46
NC(=O)C1CCCc2c1[nH]c1ccc(Cl)cc21 (racemic) — viability (OCI-Ly1; 1 µM, 120 h): 137%
C#CCOc1cc(C(=O)Nc2cc(OCCN)c3ccccc3n2)nc(C(=O)Nc2cc(OCCN)c3ccccc3n2)c1 — ΔTm (human telomeric G-quadruplex DNA; FRET melting; 1 µM, pH 7.4, with: 60 mM potassium): 16 ± 1 K
CC(C)n1ncc2c(C(=O)NCC3(C)CNC3)cc(C3CC3)nc21 — cell protection (Enterovirus D68; cytopathic effect; RD, US/MO/14-18949; 15 nM): 0% and -0.137%
NCCOc1cc(C(=O)Nc2cc(OCCN)c3ccccc3n2)nc(C(=O)Nc2cc(OCCN)c3ccccc3n2)c1 — delta Tm (double-stranded DNA; FRET melting; 1 µM, pH 7.4, 60 mM potassium, with: oligonucleotide 200 nM): 0.5 ± 0.2 K
CN[C@H](CC(C)C)C(=O)N[C@H]1C(=O)N[C@@H](CC(N)=O)C(=O)N[C@H]2C(=O)N[C@H]3C(=O)N[C@H](C(=O)N[C@H](C(=O)O)c4cc(O)cc(O)c4-c4cc3ccc4O)[C@H](O)c3ccc(c(Cl)c3)Oc3cc2cc(c3O[C@@H]2O[C@H](CO)[C@@H](O)[C@H](O)[C@H]2O[C@H]2C[C@](C)(N)[C@H](O)[C@H](C)O2)Oc2ccc(cc2Cl)[C@H]1O — bacterial load (Staphylococcus epidermidis; 9397, female ICR mice, peritonitis, spleen; dose not given): 8.17 log CFU and 5.82 log CFU and 6.3 log CFU and 8.39 log CFU and 8.11 log CFU
Cc1cc(OC(C)C)ccc1C(=O)C(C)(C)NC(=O)c1sccc1C — inhibition (Botrytis cinerea; appressorium formation; B05.10; 0.003 µg/mL): 1.7 ± 1.2%
Cc1cn([C@@H]2O[C@H](CO)[C@@H](O)[C@H]2O)c(=O)nc1N — viability (OCI-Ly1; 0.5 µM, 120 h): 97.3%
NC(=O)c1cnc2[nH]ccc2c1N[C@@H]1[C@@H]2CC3C[C@H]1C[C@@](O)(C3)C2 — percent change (CD4+ CD28+ naive T cells, flow cytometry; Caucasian humans, peripheral blood; 200 mg single dose; relative to: baseline): -1.65%
O=C(Nc1cc(OCCN2CCCC2)c2ccccc2n1)c1cc(OCc2ccc(F)cc2)cc(C(=O)Nc2cc(OCCN3CCCC3)c3ccccc3n2)n1 — ΔTm (c-kit2 G-quadruplex DNA; FRET melting; 1 µM, pH 7.4, with: 60 mM potassium): 3.8 ± 0.4 K
O=C(c1ccc(C(=O)N2CCC(N3CCCC3)CC2)c(Nc2ccccc2)c1)N1CCC(N2CCCC2)CC1 — viability (OCI-Ly1; 0.5 µM, 120 h): 159%
NCCCOc1cc(NC(=O)c2cc(OCc3c[nH]nn3)cc(C(=O)Nc3cc(OCCCN)c4ccccc4n3)n2)nc2ccccc12 — ΔTm (c-kit2 G-quadruplex DNA; FRET melting; 1 µM, pH 7.4, with: 60 mM potassium): 7.4 ± 0.3 K
C[C@H]1C[C@H]2CSC(N)=N[C@@]2(c2nc(NC(=O)c3ccc(OC(F)F)cn3)cs2)CO1 — plasma Aβx-40 change (healthy adults, fed, plasma; oral, 200 mg single dose, 6 h; relative to: baseline, placebo-adjusted): -59.4%
CN(C)CCCOc1cc(NC(=O)c2cccc(C(=O)Nc3cc(OCCCN(C)C)c4ccccc4n3)n2)nc2ccccc12 — ΔTm (c-kit2 G-quadruplex DNA; FRET melting; 1 µM, pH 7.4, with: 60 mM potassium): 19.5 ± 1.2 K
O=C(/C=C/c1ccc(O)cc1)c1ccc(O)cc1O — viability (OCI-Ly1; 1 µM, 120 h): 168%
NCCCOc1cc(NC(=O)c2cc(OCCN)cc(C(=O)Nc3cc(OCCCN)c4ccccc4n3)n2)nc2ccccc12 — ΔTm (c-kit2 G-quadruplex DNA; FRET melting; 1 µM, pH 7.4, with: 60 mM potassium): 16.2 ± 0.7 K
CC(C)NCC(O)c1ccc(O)c(O)c1 (centres unmarked) — sarcomere length (ventricular cardiomyocytes, C57BL/6 mouse; dose not given, 0.832 s): 1.52 µm

A few entries again:
NC(=O)C1CCCc2c1[nH]c1ccc(Cl)cc21 (racemic) — viability (OCI-Ly1; 1 µM, 120 h): 137%
NC(=O)c1cnc2[nH]ccc2c1N[C@@H]1[C@@H]2CC3C[C@H]1C[C@@](O)(C3)C2 — percent change (CD4+ CD28+ naive T cells, flow cytometry; Caucasian humans, peripheral blood; 200 mg single dose; relative to: baseline): -1.65%
CN(C)CCCOc1cc(NC(=O)c2cccc(C(=O)Nc3cc(OCCCN(C)C)c4ccccc4n3)n2)nc2ccccc12 — ΔTm (c-kit2 G-quadruplex DNA; FRET melting; 1 µM, pH 7.4, with: 60 mM potassium): 19.5 ± 1.2 K
O=C(Nc1cc(OCCN2CCCC2)c2ccccc2n1)c1cc(Cl)cc(C(=O)Nc2cc(OCCN3CCCC3)c3ccccc3n2)n1 — delta Tm (double-stranded DNA; FRET melting; 1 µM, pH 7.4, 60 mM potassium, with: oligonucleotide 200 nM): 0.1 ± 0.1 K
